Measurements pooled from the literature.
“And” joins repeats or separate records; there may be more than shown. ± gives the spread as reported.

SMILES = [Cl][212Pb][Cl]; system = athymic mice, C4-2 xenograft, brain; conditions = intravenous, 2 h, 212Pb-labelled; quantity = tissue uptake; value = 0.2 ± 0.03 %ID/g
SMILES = O=C(Nc1ccccc1)C1CCN(C(=O)Oc2cccnc2)CC1; assay = item: Diarrhea; system = healthy female human; conditions = concentration not given, all doses pooled; quantity = adverse event incidence; value = 13%
SMILES = CC(C)C[C@H](NC(=O)[C@H](CCCCN)NC(=O)OCC1c2ccccc2-c2ccccc21)C(=O)N[C@H](C(=O)N[C@@H](Cc1ccccc1)C(=O)N[C@@H](Cc1ccccc1)C(=O)N[C@@H](CCCCN)C(=O)NCC(=O)N[C@@H](Cc1ccccc1)C(=O)N[C@@H](C)C(=O)N[C@@H](Cc1c[nH]c2ccccc12)C(=O)N[C@@H](CC(N)=O)C(=O)N[C@H](C(=O)N[C@H]1CSSC[C@@H](C(=O)N[C@@H](Cc2c[nH]cn2)C(=O)N[C@@H](CCCNC(=N)N)C(=O)N[C@@H](CCCNC(=N)N)C(=O)N[C@@H](C)C(=O)N[C@@H](CC(N)=O)C(N)=O)NC(=O)[C@H](C(C)C)NC(=O)[C@H](CCCNC(=N)N)NC(=O)[C@H](C(C)C)NC(=O)CNC(=O)[C@H](CC(N)=O)NC(=O)[C@H](CCCNC(=N)N)NC(=O)[C@H](Cc2ccc(O)cc2)NC(=O)[C@H](C(C)C)NC1=O)C(C)C)C(C)C; system = ICR mice, blood; conditions = intraperitoneal, 10 mg/kg, day 5; quantity = monocytes; value = 3.34 ± 0.33%
SMILES = COc1cccc(Oc2ccccc2NC(=O)CNC(=O)c2cccc3ccccc23)c1; system = esterase-deficient SCID mice, male, blood; conditions = oral, 40 mg/kg/day, 14 days, toxicity study; how to read = reference: white cells; quantity = monocytes; value = 0% and 5%
SMILES = Cc1cccc(Cn2nc(C3CC3)c3c(NC(=O)c4cnc5cc(OCCN6CCN(C)CC6)ccn45)cccc32)n1; assay = CTCAE v4.03, item: blood alkaline phosphatase increased; system = pancreatic ductal adenocarcinoma patients; conditions = oral, dose not given, added: pembrolizumab IV every 3 weeks; quantity = all-cause adverse events; value = 14.8%
SMILES = CCc1ccc(CC/C=C/c2ccc3c(c2)C(=O)CC3)cc1; system = Sprague-Dawley rat, male, blood; conditions = oral, 450 mg/kg/day, 14 days; quantity = prothrombin time; value = 14.8 s
SMILES = NC(=O)[C@H]1CCN(c2ncnc(N)c2F)C[C@@H]1N1CCC[C@@H](Nc2cc(Cl)cc(C(F)(F)F)c2)C1=O; system = B-cell malignancy patients; conditions = oral, 20.5 mg twice daily, dose; quantity = grade ≥3 hyponatraemia; value = 0%
SMILES = Brc1ccc(Oc2cc(Br)c(Br)cc2Br)c(Br)c1; system = whole cow milk; conditions = 2000 nM nominal; quantity = dose fraction in milk fat; value = 84.7%
SMILES = CO[C@H]1C[C@@H]2CC[C@@H](C)[C@@](O)(O2)C(=O)C(=O)N2CCCC[C@H]2C(=O)O[C@H]([C@H](C)C[C@@H]2CC[C@@H](OC(=O)NCCOCCOCCOCCOCCOCCOCCOCCOCCC(=O)N3CCc4cc(Cn5nc(-c6ccc7oc(N)nc7c6)c6c(N)ncnc65)ccc4C3)[C@H](OC)C2)C[C@@H](O)[C@H](C)/C=C(\C)[C@@H](O)[C@@H](OC)C(=O)[C@H](C)C[C@H](C)/C=C/C=C/C=C/1C; system = patients with advanced solid tumours; conditions = intravenous, 8 mg weekly, grade 3 or higher; quantity = dysgeusia incidence; value = 0%
SMILES = CC(C)=CC1C(C(=O)OC(C#N)c2cccc(Oc3ccccc3)c2)C1(C)C (centres unmarked); assay = item: CYP2C19; system = human, age 1 year; quantity = enzyme contribution to clearance; value = 0.77%
SMILES = C[C@@H]1NC(=O)[C@H](CCCCNC(=O)CO/N=C/C(=O)NCCCC[C@@H]2NC(=O)[C@@H](Cc3ccccc3)NC(=O)[C@H](CC(=O)O)NC(=O)CNC(=O)[C@H](CCCNC(=N)N)NC2=O)NC(=O)CNC(=O)[C@@H]2CCCN2C(=O)[C@H](CCCCNC(=O)CO/N=C/C(=O)NCCCC[C@@H]2NC(=O)[C@@H](Cc3ccccc3)NC(=O)[C@H](CC(=O)O)NC(=O)CNC(=O)[C@H](CCCNC(=N)N)NC2=O)NC(=O)[C@H](CCCCNC(=O)CN2CCCNCCNCCCNCC2)NC(=O)[C@H](CCCCNC(=O)CO/N=C/C(=O)NCCCC[C@@H]2NC(=O)[C@@H](Cc3ccccc3)NC(=O)[C@H](CC(=O)O)NC(=O)CNC(=O)[C@H](CCCNC(=N)N)NC2=O)NC(=O)CNC(=O)[C@@H]2CCCN2C(=O)[C@H](CCCCNC(=O)CO/N=C/C(=O)NCCCC[C@@H]2NC(=O)[C@@H](Cc3ccccc3)NC(=O)[C@H](CC(=O)O)NC(=O)CNC(=O)[C@H](CCCNC(=N)N)NC2=O)NC1=O [copper-64 labelled]; system = normal mice, intestine; conditions = intravenous, 0.74 MBq, 24 h post-injection; quantity = tissue uptake; value = 1.77 ± 0.21 %ID/g
SMILES = COc1ccc(C[C@@H]2NC(=O)[C@H]([C@@H](C)O)NC(=O)[C@@H]3[C@@H]4CCN3C(=O)[C@@H]3Cc5cn(c6ccc(F)cc56)CCCCCCN(Cc5ccc(cc5)CCNC(=O)[C@]5(C)CCCN5C2=O)C(=O)CCC(=O)N[C@@H](C)C(=O)N[C@H](CNC(=O)CCCCC[N+](C)(C)C)C(=O)N[C@@H](Cc2cccc(c2)CNC(=O)CO4)C(=O)N3)cc1; assay = item: Diarrhea; system = humans; conditions = concentration not given, Study-003; quantity = participants with adverse event; value = 9.7%
SMILES = C[C@]1(CO)Cc2ncn(-c3ccc(C#N)c(Cl)c3)c2C(=O)O1; system = human, plasma; conditions = oral, 10 mg single dose, fasted; quantity = AUC(0-tz) adjusted geometric mean; value = 2.32 µM·h
SMILES = O=C1Nc2cc3[nH]nc(-c4ccncc4)c3cc2CN1Cc1ccccc1; assay = CTCAE v4.03; system = advanced solid tumour patients; conditions = intravenous, 3.6 mg/kg; quantity = patients with infusion reaction; value = 0%
SMILES = CC(=O)N(C)[C@H]1CCN(C(=O)c2cnc3c(c2)C[C@](C)(c2ccc(F)cc2)N3)C1; assay = item: diarrhoea; system = human; conditions = oral, dose not given, added: midazolam; quantity = adverse event duration; value = 6 days
SMILES = O=C(Nc1ccccc1)C1CCN(C(=O)Oc2cccnc2)CC1; assay = Bond-Lader VAS; system = healthy women; conditions = 60 mg; how to read = reference: pre-dose baseline, direction not given; quantity = change in well-coordinated–clumsy score; value = -1.6
SMILES = CC[C@H](C)[C@H](NC(=O)[C@H](Cc1ccccc1)NC(=O)[C@H](CCC(=O)O)NC(=O)[C@H](CCCNC(=N)N)NC(=O)[C@H](C)NC(=O)[C@H](C)NC(=O)[C@H](CCC(N)=O)NC(=O)[C@H](CCC(=O)O)NC(=O)[C@H](CCC(=O)O)NC(=O)[C@H](CC(C)C)NC(=O)[C@H](Cc1ccc(O)cc1)NC(=O)[C@H](CO)NC(=O)[C@H](CO)NC(=O)[C@@H](NC(=O)[C@H](CC(=O)O)NC(=O)[C@H](CO)NC(=O)[C@@H](NC(=O)[C@H](Cc1ccccc1)NC(=O)[C@@H](NC(=O)CNC(=O)[C@H](CCC(=O)O)NC(=O)[C@H](C)NC(=O)CCc1cnc[nH]1)[C@@H](C)O)[C@@H](C)O)C(C)C)C(=O)N[C@@H](C)C(=O)N[C@@H](Cc1c[nH]c2ccccc12)C(=O)N[C@@H](CC(C)C)C(=O)N[C@H](C(=O)N[C@@H](CCCNC(=N)N)C(=O)NCC(=O)N[C@@H](CCCNC(=N)N)C(=O)N[C@@H](CCCCNC(=O)COCCOCCNC(=O)COCCOCCNC(=O)CC[C@H](NC(=O)CCCCCCCCCCCCCCCCC(=O)O)C(=O)O)C(=O)NCC(=O)NCC(=O)N[C@@H](CO)C(=O)N[C@@H](CCCCNC(=O)[C@H](CCCCNc1c(NCCCCCN(O)C(=O)CCC(=O)NCCCCCN(O)C(=O)CCC(=O)NCCCCCN(O)C(C)=O)c(=O)c1=O)Nc1c(NCCCCCN(O)C(=O)CCC(=O)NCCCCCN(O)C(=O)CCC(=O)NCCCCCN(O)C(C)=O)c(=O)c1=O)C(=O)O)C(C)C [zirconium-89 labelled]; assay = ex vivo gamma counting; system = male Sprague-Dawley rat, stomach-duodenum; conditions = intravenous, 1 nmol, 24 h; quantity = tissue uptake; value = 0.401 %ID/g
SMILES = COc1ccc2c(c1)CN(C(=O)CCN1CCC(Cc3ccccc3)CC1)CC[S@@+]2[O-]; system = female Beagle dogs, chronic AV block, plasma; conditions = intravenous, 3 mg/kg, end of 10 min infusion; quantity = unbound plasma concentration; value = 1420 ± 180 nM
SMILES = O=S(=O)(Nc1ccccc1)c1ccc(NC(=S)Nc2ccccc2)cc1; assay = item: BA%; system = female mouse, blood; conditions = oral, 20 mg/kg daily, 14 days; quantity = blood cell fraction; value = 0.13%
SMILES = N[C@@H]1c2ccccc2OC12CCN(c1cnc3c(N4CCCc5ncccc54)n[nH]c3n1)CC2; system = advanced solid tumour patients; conditions = oral, 75 mg once daily; quantity = TEAE causing dose reduction; value = 28.6%
SMILES = COc1cc2c(Oc3ccc4[nH]c(C)cc4c3F)ccnc2cc1OCC1(N)CC1; system = paediatric recurrent refractory sarcoma; conditions = 10 mg; quantity = grade 1 or 2 Hyperuricemia; value = 0%
SMILES = C[C@H]1CN(C(=O)CC#N)[C@]12CCN(c1ncnc3[nH]ccc13)C2; system = dog male and female; conditions = oral, 9 months, repeated-dose toxicity study; quantity = NOAEL; value = 0.6 mg/kg
SMILES = O=c1nc(NO)ccn1[C@@H]1O[C@H](CO)[C@@H](O)[C@H]1O; system = rat fetus dialysate; conditions = 1000 ng/mL, high concentration, three cycles, added: molnupiravir 250 ng/mL; quantity = freeze-thaw stability; value = 97.6 ± 4.28%
SMILES = C=CC(=O)Nc1cc(Nc2nccc(Nc3cc(Cl)c(F)cc3C(C)(C)O)n2)c(OC)cc1N1CC[C@@H](N(C)C)C1; assay = treatment-emergent adverse events; system = human; conditions = oral, 50 mg, phase I clinical trial; quantity = incidence of vomiting; value = 16.7%
SMILES = Clc1nc[n]([Au][PH](c2ccccc2)(c2ccccc2)c2ccccc2)c1Cl; system = NCG mouse, plasma; conditions = intraperitoneal, 10 mg/kg; quantity = terminal half-life; value = 63.4 h
SMILES = CC(C)(O)c1cc(Nc2cc(Oc3cn(C4CC4)nc3C3CCOCC3)ccn2)ccn1; assay = Fatigue; system = patients with advanced cancer, grade 4 glioma expansion; conditions = oral, 50 mg twice daily, grade ≥3, 2 weeks on/2 weeks off schedule; quantity = treatment-related adverse events; value = 0%

For quick reference, copied from above:
SMILES = [Cl][212Pb][Cl]; system = athymic mice, C4-2 xenograft, brain; conditions = intravenous, 2 h, 212Pb-labelled; quantity = tissue uptake; value = 0.2 ± 0.03 %ID/g
SMILES = O=C(Nc1ccccc1)C1CCN(C(=O)Oc2cccnc2)CC1; assay = item: Diarrhea; system = healthy female human; conditions = concentration not given, all doses pooled; quantity = adverse event incidence; value = 13%
SMILES = CC(C)C[C@H](NC(=O)[C@H](CCCCN)NC(=O)OCC1c2ccccc2-c2ccccc21)C(=O)N[C@H](C(=O)N[C@@H](Cc1ccccc1)C(=O)N[C@@H](Cc1ccccc1)C(=O)N[C@@H](CCCCN)C(=O)NCC(=O)N[C@@H](Cc1ccccc1)C(=O)N[C@@H](C)C(=O)N[C@@H](Cc1c[nH]c2ccccc12)C(=O)N[C@@H](CC(N)=O)C(=O)N[C@H](C(=O)N[C@H]1CSSC[C@@H](C(=O)N[C@@H](Cc2c[nH]cn2)C(=O)N[C@@H](CCCNC(=N)N)C(=O)N[C@@H](CCCNC(=N)N)C(=O)N[C@@H](C)C(=O)N[C@@H](CC(N)=O)C(N)=O)NC(=O)[C@H](C(C)C)NC(=O)[C@H](CCCNC(=N)N)NC(=O)[C@H](C(C)C)NC(=O)CNC(=O)[C@H](CC(N)=O)NC(=O)[C@H](CCCNC(=N)N)NC(=O)[C@H](Cc2ccc(O)cc2)NC(=O)[C@H](C(C)C)NC1=O)C(C)C)C(C)C; system = ICR mice, blood; conditions = intraperitoneal, 10 mg/kg, day 5; quantity = monocytes; value = 3.34 ± 0.33%
SMILES = COc1cccc(Oc2ccccc2NC(=O)CNC(=O)c2cccc3ccccc23)c1; system = esterase-deficient SCID mice, male, blood; conditions = oral, 40 mg/kg/day, 14 days, toxicity study; how to read = reference: white cells; quantity = monocytes; value = 0% and 5%
